{"data": "Results pooled from the literature", "note": "Lines come from different studies, so protocols differ. ± marks the error that the study gave."}
{"SMILES": "CCc1cc(C(=O)NC)c2nccc(N3CCc4c(cc(Cn5ccnc5)cc4-c4cn(C)nc4C(F)(F)F)C3=O)c2c1", "test system": "Sprague Dawley rat", "conditions": "oral, 100 mg/kg once daily, 7 days", "measurement": "brain weight", "value": "1.87 ± 0.07 g"}
{"SMILES": "COc1cc2c3c(n(CCCN4CCOCC4)c(=O)c2cc1OC)-c1cc2c(cc1C3=O)OCO2", "test system": "beagle dog, male, plasma", "conditions": "intravenous infusion, 50 mg/m^2, 1 h infusion, vehicle 2", "measurement": "Vz", "value": "388 ± 25 L/m²"}
{"SMILES": "CN(C(=O)n1cnc(-c2cccnc2)c1)C1CCCCC1", "test system": "Wistar rat, cerebellum", "conditions": "oral, 10 mg/kg/day of BIA 10-2474, 72 h, repeated 5 days", "measurement": "concentration", "value": "5.9 ± 0.3 ng/g"}
{"SMILES": "Nc1nc2c(nc([N+](=O)[O-])n2[C@@H]2O[C@H](CO)[C@@H](O)[C@H]2O)c(=O)[nH]1", "test system": "citrate phosphate buffer", "conditions": "0.5 mM, pH 7.10, 37 °C", "measurement": "depurination half-life", "value": "22.1 h"}
{"SMILES": "CC(=O)N[C@H]1CNC(=O)c2cc(cn2C)NC(=O)c2cc(cn2C)NC(=O)c2nc(cn2C)NC(=O)c2nc(cn2C)NC(=O)C[C@@H](NC(C)=O)CNC(=O)c2cc(cn2C)NC(=O)c2cc(cn2C)NC(=O)c2cc(cn2C)NC(=O)c2cc(cn2C)NC(=O)C1", "test": "dynamic light scattering", "test system": "0.1% DMSO in PBS", "conditions": "25 °C", "measurement": "critical aggregation concentration", "value": "4 µM"}
{"SMILES": "NS(=O)(=O)c1ccc(CNc2ccnc(Nc3cccc(CN4CCOCC4)c3)n2)cc1", "test": "PAMPA", "test system": "PBS", "conditions": "5 h, pH 7.4", "measurement": "effective permeability", "value": "4.56 nm/s"}
{"SMILES": "C=CC[C@@]1(C)NC(=O)CNC(=O)[C@H](Cc2c[nH]c3ccccc23)NC(=O)[C@H](CC(=O)O)NC(=O)[C@H](CCC(N)=O)NC(=O)[C@H](Cc2c[nH]c3ccccc23)NC(=O)[C@H](C(C)C)NC(=O)[C@@H](NC(=O)[C@@H](NC(C)=O)[C@@H](C)CC)CSSC[C@@H](C(=O)N[C@H](C(N)=O)[C@@H](C)O)NC(=O)[C@H](CCCNC(=N)N)NC(=O)[C@H](Cc2c[nH]cn2)NC1=O", "test": "RP-HPLC, C18", "test system": "28% acetonitrile isocratic", "conditions": "pH 7.4", "measurement": "retention factor", "value": "4.106 ± 0.007"}
{"SMILES": "COc1ccc2c(c1)CN(C(=O)CCN1CCC(Cc3ccccc3)CC1)CC[S@@+]2[O-]", "test": "telemetry", "test system": "conscious male beagle dogs", "conditions": "intravenous, 4 mg/kg, 2 h", "measurement": "systolic blood pressure", "value": "128 ± 7 mmHg"}
{"SMILES": "Cc1cc(C)c(CNC(=O)c2cc(Cl)c3c(c2C)O[C@@](C)([C@H]2CC[C@H](N(C)C)CC2)O3)c(=O)[nH]1", "test": "item: Alopecia", "test system": "human patients", "conditions": "oral, 200 mg once daily, 1 day onset day 14", "measurement": "patients with TEAE", "value": "4.2%"}
{"SMILES": "C[C@@H]1COCCN1c1cc(C2([S@](C)(=N)=O)CC2)nc(-c2cc[nH]c3nccc2-3)n1", "test system": "Japanese advanced solid tumour patients", "conditions": "oral, 160 mg twice daily, any grade", "measurement": "Rash incidence", "value": "16.7%"}
{"SMILES": "C=CCN1CC(=O)N2[C@@H](Cc3ccc(O)cc3F)C(=O)N(Cc3cccc(N4CC(N5CCN(CC)CC5)C4)n3)C[C@@H]2N1C(=O)NCc1ccccc1", "test system": "advanced solid tumour patients", "conditions": "oral, 80 mg twice daily, any grade, dose-escalation", "measurement": "treatment-related AST increased", "value": "0%"}
{"SMILES": "O=C(Nc1nc2cccc(-c3ccc(CN4CCS(=O)(=O)CC4)cc3)n2n1)C1CC1", "test": "item: chills", "test system": "human rheumatoid arthritis patients", "conditions": "oral, 150 mg once daily, 4 weeks, regardless of relatedness", "measurement": "treatment-emergent adverse events", "value": "0%"}
{"SMILES": "Cl.[2H]C([2H])([2H])CC(=O)c1cnc(NC(=O)C2CC2)cc1Nc1cccc(-c2ncn(C([2H])([2H])[2H])n2)c1OC", "test": "geometric mean", "test system": "human", "conditions": "oral, 10 mg once daily, day 7, fasted, liquid, multiple dose", "measurement": "Cmax", "value": "0.117 µg/mL"}
{"SMILES": "CC=CC1CCC(C2CCC(CCC)CC2)CC1 (centres unmarked)", "test system": "rat, fetus", "conditions": "5000 ng/mL in perfusate, high dose, mixture of 21 LCMs", "measurement": "fetal accumulation", "value": "1.29 ± 1.09 ng/g"}
{"SMILES": "O=C(O)CCC(=O)O.[2H]C([2H])([2H])Oc1cc(C)c2[nH]ccc2c1CN1CC[C@@H](C2CC2)C[C@H]1c1ccc(C(=O)O)cc1", "test": "multiple ascending dose", "test system": "healthy Chinese subjects", "conditions": "125 mg twice daily", "measurement": "subjects with hyperuricaemia", "value": "0%"}
{"SMILES": "O=C(N[C@H](Cc1c[nH]c2ccccc12)C(=O)Nc1ccncc1)c1ccc(-c2cc(C(F)(F)F)ccc2F)cc1F", "test system": "Swiss Webster mouse, female, heart", "conditions": "oral, 50 mg/kg, 8 h, 20% Kolliphor vehicle", "measurement": "concentration", "value": "17.3 µM"}
{"SMILES": "CCN(Cc1nc2c(N)nc3cc(-c4cc[nH]n4)ccc3c2[nH]1)C(C)=O", "test system": "human patients, plasma", "conditions": "intratumoral, dose not given", "measurement": "median Tmax", "value": "1 to 2 h"}
{"note": "Excerpt of the above:"}
{"SMILES": "Cl.[2H]C([2H])([2H])CC(=O)c1cnc(NC(=O)C2CC2)cc1Nc1cccc(-c2ncn(C([2H])([2H])[2H])n2)c1OC", "test": "geometric mean", "test system": "human", "conditions": "oral, 10 mg once daily, day 7, fasted, liquid, multiple dose", "measurement": "Cmax", "value": "0.117 µg/mL"}
